# Measurements pooled from the literature.
# Numbers after ± are the reported error.
# U2AF2: U2AF2 148-342 (Homo sapiens, UniProt P26368)
# UniProt P26368, sequence (whole entry, looked up): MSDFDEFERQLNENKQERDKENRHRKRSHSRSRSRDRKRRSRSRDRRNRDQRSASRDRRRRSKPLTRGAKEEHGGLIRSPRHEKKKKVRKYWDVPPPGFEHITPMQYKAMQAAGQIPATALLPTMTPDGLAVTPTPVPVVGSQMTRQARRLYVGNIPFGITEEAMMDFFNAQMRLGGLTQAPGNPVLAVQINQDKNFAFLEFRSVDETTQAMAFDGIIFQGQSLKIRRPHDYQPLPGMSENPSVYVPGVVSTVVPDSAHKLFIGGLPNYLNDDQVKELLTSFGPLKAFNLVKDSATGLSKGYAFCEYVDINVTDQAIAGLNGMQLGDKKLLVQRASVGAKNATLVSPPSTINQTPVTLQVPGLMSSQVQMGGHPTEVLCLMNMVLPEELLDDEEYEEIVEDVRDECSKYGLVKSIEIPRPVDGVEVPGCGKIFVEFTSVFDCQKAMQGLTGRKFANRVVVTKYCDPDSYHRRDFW
# nac full length assumed: nac full length assumed (Escherichia coli, UniProt Q47005)
# UniProt Q47005, sequence (whole entry, looked up): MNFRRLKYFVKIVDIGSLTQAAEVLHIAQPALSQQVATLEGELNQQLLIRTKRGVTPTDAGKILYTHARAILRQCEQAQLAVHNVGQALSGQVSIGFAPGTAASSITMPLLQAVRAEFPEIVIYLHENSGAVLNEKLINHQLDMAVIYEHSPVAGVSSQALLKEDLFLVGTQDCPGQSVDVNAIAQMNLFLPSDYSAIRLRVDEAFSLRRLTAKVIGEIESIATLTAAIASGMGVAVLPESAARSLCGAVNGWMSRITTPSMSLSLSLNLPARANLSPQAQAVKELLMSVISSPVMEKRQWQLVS
# PHO4 full length assumed: PHO4 full length assumed (Saccharomyces cerevisiae, UniProt P07270)
# UniProt P07270, sequence (whole entry, looked up): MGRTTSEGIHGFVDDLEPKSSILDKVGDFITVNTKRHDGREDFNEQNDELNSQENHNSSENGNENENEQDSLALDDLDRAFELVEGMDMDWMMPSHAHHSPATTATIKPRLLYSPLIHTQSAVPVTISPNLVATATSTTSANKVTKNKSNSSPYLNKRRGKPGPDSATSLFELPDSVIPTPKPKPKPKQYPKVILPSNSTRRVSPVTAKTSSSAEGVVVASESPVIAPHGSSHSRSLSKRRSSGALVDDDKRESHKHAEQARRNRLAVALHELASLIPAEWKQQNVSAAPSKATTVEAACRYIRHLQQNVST
# SPT15 full length assumed: SPT15 full length assumed (Saccharomyces cerevisiae, UniProt P13393)
# UniProt P13393, sequence (whole entry, looked up): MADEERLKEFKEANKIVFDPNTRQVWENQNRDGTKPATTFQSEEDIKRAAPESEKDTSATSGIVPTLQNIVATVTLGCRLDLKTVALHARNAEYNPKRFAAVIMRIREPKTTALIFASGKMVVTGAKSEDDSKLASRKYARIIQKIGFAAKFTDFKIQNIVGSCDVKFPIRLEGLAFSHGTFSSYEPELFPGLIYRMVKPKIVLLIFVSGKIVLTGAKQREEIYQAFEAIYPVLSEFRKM
# CBF1: CBF1 1-351 (Saccharomyces cerevisiae, UniProt P17106)
# UniProt P17106, sequence (whole entry, looked up): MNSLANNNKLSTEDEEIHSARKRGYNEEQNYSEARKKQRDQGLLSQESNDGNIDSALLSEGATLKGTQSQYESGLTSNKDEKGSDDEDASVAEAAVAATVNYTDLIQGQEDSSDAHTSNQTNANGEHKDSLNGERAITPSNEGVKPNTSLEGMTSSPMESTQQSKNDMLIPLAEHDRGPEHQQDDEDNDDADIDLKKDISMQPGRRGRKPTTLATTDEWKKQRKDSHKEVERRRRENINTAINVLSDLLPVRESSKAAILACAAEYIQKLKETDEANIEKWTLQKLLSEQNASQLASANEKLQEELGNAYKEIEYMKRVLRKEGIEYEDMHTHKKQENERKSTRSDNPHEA
# pdhR full length assumed: pdhR full length assumed (Escherichia coli, UniProt P0ACL9)
# UniProt P0ACL9, sequence (whole entry, looked up): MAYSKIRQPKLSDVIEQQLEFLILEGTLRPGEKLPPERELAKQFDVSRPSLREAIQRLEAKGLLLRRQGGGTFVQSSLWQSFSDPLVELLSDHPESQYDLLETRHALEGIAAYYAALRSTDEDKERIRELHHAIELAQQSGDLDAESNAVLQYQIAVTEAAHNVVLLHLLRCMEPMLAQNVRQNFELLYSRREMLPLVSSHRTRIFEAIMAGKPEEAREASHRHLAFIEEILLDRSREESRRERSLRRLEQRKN
# HMGB3 full length assumed: HMGB3 full length assumed (Homo sapiens, UniProt O15347)
# UniProt O15347, sequence (whole entry, looked up): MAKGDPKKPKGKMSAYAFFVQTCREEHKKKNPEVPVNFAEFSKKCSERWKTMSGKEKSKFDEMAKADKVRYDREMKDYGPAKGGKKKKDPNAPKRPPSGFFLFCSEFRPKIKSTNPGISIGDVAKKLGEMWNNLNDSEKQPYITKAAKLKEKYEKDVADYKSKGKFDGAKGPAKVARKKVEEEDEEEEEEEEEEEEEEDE
# PHO4: PHO4 1-312 (Saccharomyces cerevisiae, UniProt P07270)
# CIN5 full length assumed: CIN5 full length assumed (Saccharomyces cerevisiae, UniProt P40917)
# UniProt P40917, sequence (whole entry, looked up): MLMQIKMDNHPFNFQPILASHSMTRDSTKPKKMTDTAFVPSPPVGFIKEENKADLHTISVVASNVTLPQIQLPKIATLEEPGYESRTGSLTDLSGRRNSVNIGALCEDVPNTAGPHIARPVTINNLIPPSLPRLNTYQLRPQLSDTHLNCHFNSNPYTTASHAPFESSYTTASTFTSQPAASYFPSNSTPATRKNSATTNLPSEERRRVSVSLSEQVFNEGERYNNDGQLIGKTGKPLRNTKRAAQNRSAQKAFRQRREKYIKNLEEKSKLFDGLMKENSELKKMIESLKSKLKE
# UniProt P07676, sequence (whole entry, unmodified, looked up): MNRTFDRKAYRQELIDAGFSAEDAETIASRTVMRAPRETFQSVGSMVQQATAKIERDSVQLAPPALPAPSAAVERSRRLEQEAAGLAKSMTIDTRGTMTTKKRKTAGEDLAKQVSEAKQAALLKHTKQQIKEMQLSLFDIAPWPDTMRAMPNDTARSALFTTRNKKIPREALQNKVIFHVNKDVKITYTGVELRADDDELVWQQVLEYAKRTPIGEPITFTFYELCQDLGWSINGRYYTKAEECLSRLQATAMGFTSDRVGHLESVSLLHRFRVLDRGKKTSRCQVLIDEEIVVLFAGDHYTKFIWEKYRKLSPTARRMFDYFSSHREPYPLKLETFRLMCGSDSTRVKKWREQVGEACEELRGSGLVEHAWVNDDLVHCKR
# UniProt P09874, sequence (whole entry, unmodified, looked up): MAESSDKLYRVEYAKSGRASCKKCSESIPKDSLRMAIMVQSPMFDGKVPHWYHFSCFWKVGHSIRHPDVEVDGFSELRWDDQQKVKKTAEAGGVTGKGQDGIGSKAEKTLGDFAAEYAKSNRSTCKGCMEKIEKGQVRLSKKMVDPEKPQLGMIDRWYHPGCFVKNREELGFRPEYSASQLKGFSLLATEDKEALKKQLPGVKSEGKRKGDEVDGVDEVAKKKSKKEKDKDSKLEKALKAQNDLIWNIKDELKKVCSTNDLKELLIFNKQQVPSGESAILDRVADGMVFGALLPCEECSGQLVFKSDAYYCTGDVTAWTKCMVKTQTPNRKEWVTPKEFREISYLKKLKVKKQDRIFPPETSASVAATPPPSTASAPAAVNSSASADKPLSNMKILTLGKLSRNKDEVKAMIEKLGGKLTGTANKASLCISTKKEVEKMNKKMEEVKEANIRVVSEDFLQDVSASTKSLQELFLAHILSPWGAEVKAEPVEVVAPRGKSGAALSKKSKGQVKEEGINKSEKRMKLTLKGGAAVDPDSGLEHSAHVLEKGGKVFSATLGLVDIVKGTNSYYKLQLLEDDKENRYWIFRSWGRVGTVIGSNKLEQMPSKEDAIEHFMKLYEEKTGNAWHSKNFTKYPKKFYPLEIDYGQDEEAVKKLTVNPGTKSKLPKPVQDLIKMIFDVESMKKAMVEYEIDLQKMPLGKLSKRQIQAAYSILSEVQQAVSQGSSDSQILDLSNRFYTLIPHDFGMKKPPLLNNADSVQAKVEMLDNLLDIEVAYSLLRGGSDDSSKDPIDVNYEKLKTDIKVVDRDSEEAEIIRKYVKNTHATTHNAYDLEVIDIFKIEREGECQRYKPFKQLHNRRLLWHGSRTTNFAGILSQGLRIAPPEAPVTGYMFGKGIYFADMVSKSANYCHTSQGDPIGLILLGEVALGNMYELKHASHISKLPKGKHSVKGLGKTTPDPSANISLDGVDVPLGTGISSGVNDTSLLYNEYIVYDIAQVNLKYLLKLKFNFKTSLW
# UniProt O95905, sequence (whole entry, looked up): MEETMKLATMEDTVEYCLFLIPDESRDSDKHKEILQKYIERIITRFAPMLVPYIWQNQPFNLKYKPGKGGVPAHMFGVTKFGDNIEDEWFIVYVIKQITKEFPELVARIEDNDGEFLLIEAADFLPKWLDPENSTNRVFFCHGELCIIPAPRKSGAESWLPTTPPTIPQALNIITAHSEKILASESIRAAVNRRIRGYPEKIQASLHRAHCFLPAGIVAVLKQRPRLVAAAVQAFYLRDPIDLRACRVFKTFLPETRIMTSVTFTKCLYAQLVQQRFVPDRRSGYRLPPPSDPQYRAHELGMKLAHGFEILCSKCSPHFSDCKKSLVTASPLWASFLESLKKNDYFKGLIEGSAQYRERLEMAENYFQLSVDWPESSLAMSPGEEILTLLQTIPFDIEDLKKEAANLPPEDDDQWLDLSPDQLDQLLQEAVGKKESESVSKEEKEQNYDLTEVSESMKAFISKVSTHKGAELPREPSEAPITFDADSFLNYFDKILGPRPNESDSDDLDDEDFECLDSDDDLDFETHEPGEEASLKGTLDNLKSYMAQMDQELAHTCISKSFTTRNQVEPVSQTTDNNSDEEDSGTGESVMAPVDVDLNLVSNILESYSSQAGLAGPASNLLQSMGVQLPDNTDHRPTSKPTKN
# UniProt P0AFB8, sequence (whole entry, looked up): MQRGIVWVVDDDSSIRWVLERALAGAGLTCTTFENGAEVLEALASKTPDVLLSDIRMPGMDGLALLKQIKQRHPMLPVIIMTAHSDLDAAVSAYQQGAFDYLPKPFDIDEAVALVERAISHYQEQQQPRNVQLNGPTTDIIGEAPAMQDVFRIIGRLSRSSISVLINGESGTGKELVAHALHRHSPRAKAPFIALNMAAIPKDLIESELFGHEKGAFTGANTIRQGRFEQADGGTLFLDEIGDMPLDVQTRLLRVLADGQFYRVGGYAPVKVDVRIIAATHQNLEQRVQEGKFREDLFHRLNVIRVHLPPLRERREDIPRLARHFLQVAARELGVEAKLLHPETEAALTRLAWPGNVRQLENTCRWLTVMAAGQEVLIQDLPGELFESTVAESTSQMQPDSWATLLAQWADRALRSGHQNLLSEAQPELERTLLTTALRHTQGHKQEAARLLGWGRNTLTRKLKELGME
Strand,target,method,molecule type,notes,with,Kd
AAUUACAUU (ssRNA),U2AF2,sequencing of bound RNA,RNA,motif only,,6790 nM
GAUACAGAGAAGA (ssRNA),"SART3 697-786 (Homo sapiens, UniProt Q15020)",ITC,RNA,,,850 ± 180 nM
AAGAUAGUU (ssRNA),U2AF2,sequencing of bound RNA,RNA,motif only,,3560 nM
TTGACAAAATTTGAAAGTTGGAAAAATTTTCCAATAAATAGAGGTAGGAATAAAATGGCAA (dsDNA),nac full length assumed,BLI,"double-stranded DNA, one strand shown",,,4280 nM
CGCTATTTACGTCACTACGTCAGCACGTCAGGACGTCAGTACGTCATCACGTCATCTCCGGCGGTATGAC (dsDNA),PHO4 full length assumed,MITOMI,"double-stranded DNA, one strand shown",not purified,,2100 ± 300 nM
CGGCAGGACGUACAUCCCUCCCGGCUCCCCUCCCGCUGGCCUGCCG (RNA; extended stem-loop),"PARP1 216-1014 del1-215 (Homo sapiens, UniProt P09874)",fluorescence polarization,folded RNA,Hill coefficient 0.46,,3.8 ± 0.8 nM
TCCTGAAGGGGAGCCCTAGCTTGGTCCTATCGTCGTCAAGTCAATCGGTCC (dsDNA; 5'-amino-C6 primer),SPT15 full length assumed,array,"double-stranded DNA, one strand shown",TBP alone,,9.08 ± 3.35 nM
CAATACACTGTTATCAGACACACGTGTCGATCTACTCGTTCGGTTATCCGGCGGTATGAC (dsDNA),CBF1,MITOMI,"double-stranded DNA, one strand shown",not purified,,195 ± 9 nM
GCAGCCCTGGTTAAAAACAAGGTTTATAAATATTGGTTTAAAAGCAGGTTAAAAGACAGGTTAGCGGTGG (ssDNA),"trfA 98-382 G254D/S267L/K303E (Escherichia coli, UniProt P07676)",SPR,single-stranded DNA,,,56.7 nM
DNA 1 TGTGTCACCACTGCTCACGTACAGAGCTG / DNA 2 CAGCTCTGTACGTGAGCAGTGGTGACAC (dsDNA; 5' 1-nt overhang),"TDG 1-410 (Homo sapiens, UniProt Q13569)",EMSA,double-stranded DNA,,,47 nM
GAATTCCTATAAAGTAATGTGGAGCTCCGTTCGTCTCAAGTCAATCGGTCC (dsDNA; blunt; 5'-amino-C6 primer),SPT15 full length assumed,EMSA,"double-stranded DNA, one strand shown",,,3.1 ± 1.3 nM
AGCGTCACAGACATGAAATTGGTCAGACCAATTGACCTCGGCAAGTGGCTTAAGACAGGAA (dsDNA),pdhR full length assumed,BLI,"double-stranded DNA, one strand shown",,,1.61 nM
CAGAGGATGTGGCTTC (dsDNA),"RUNX2 111-287 (Homo sapiens, UniProt Q13950)",fluorescence anisotropy,"double-stranded DNA, one strand shown",Mg2+ 5 mM,,1200 ± 390 nM
AUACAACAUACAACAUACAA (ssRNA),"GATA1 200-319 (Homo sapiens, UniProt P15976)",fluorescence anisotropy,RNA,,,230 ± 90 nM
TTTGCGTGGGCTGTGGTGCTTT (ssDNA),"traI 330-858 (Escherichia coli, UniProt P14565)",fluorescence titration,single-stranded DNA,,,47 ± 5.8 nM
CAATACACTGTTATCAGACACACGTGTCGTGCTACTCGTTCGGTTATCCGGCGGTATGAC (dsDNA),CBF1,MITOMI,"double-stranded DNA, one strand shown",not purified,,220 ± 10 nM
AAUUUGUUU (ssRNA),U2AF2,sequencing of bound RNA,RNA,motif only,,4020 nM
AGCGTCACAGACATGAAAATGGTCTGACCATTTGACCTCGGCAAGTGGCTTAAGACAGGAA (dsDNA),pdhR full length assumed,BLI,"double-stranded DNA, one strand shown",,,1.35 nM
CUGCAAUUUUUUUUUUUUUAUUUUUCAUUUCCAGUA (ssRNA),U2AF2,ITC,RNA,,,291 ± 110 nM
AAAUGAGGCGCUGCAUGUGGCAGUCUGCCUUUCUUU (structured RNA),"LARP7 1-204 (Homo sapiens, UniProt Q4G0J3)",FRET,folded RNA,,,33 ± 1 nM
ACUUUUCAG (ssRNA),U2AF2,sequencing of bound RNA,RNA,motif only,,16900 nM
AUCAUGUGCCAUAC (ssRNA),"fbf-1 162-573 (Caenorhabditis elegans, UniProt Q9N5M6)",EMSA,RNA,,,54 nM
CAATACACTGTTATCAGAAACACGTGTCGAGCTACTCGTTCGGTTATCCGGCGGTATGAC (dsDNA),CBF1,MITOMI,"double-stranded DNA, one strand shown",not purified,,110 ± 5 nM
CTCAGGAATTCCCATAAAGTAATGTGGAGCTCAGTTCAAGTCAATCGGTCC (dsDNA; blunt; 5'-amino-C6 primer),SPT15 full length assumed,EMSA,"double-stranded DNA, one strand shown",,,25.2 ± 2.6 nM
CCATCGCTACC (dsDNA),HMGB3 full length assumed,fluorescence anisotropy,"double-stranded DNA, one strand shown",,,4.2 ± 0.5 nM
UUAUUUAAU (ssRNA),U2AF2,sequencing of bound RNA,RNA,motif only,,16200 nM
DNA 1 ACATTTTTTTCGTTTGTTAGAATAATTCAAGAATCTCAATTCAATCGGTCC / DNA 2 GGACCGATTGACTTGAGATTCTTGAATTATTCTAACAAACGAAAAAAATGT (dsDNA; 5'-amino-C6 primer),SPT15 full length assumed,array,double-stranded DNA,TBP alone,,18.6 ± 2 nM
RNA 1 GCAGUAGGGUGAGGGUGUUGGCAGGGAGCGCCCUCCCCCAUAGUGU / RNA 2 ACACUAUGGGGGAGGGCGCUCCCUGCCAACACCCUCACCCUACUGC (dsRNA),"PARP1 1-1014 (Homo sapiens, UniProt P09874)",fluorescence polarization,double-stranded RNA,Hill coefficient 0.67,,188 ± 30 nM
CTGAAGGGGGGGCTATAAAAGGGGGTGGGGGCTCCTCAAGTCAATCGGTCC (dsDNA; 5'-amino-C6 primer),SPT15 full length assumed,array,"double-stranded DNA, one strand shown",TBP alone,,1.92 ± 0.12 nM
CAATACACTGTTATCAGACACACGTGGCGAGCTACTCGTTCGGTTATCCGGCGGTATGAC (dsDNA),PHO4,MITOMI,"double-stranded DNA, one strand shown",not purified,,91 ± 2 nM
AGATCTCCATCCTTGGGATATGGCTACCAGAAAGTAAAGGGACGATACAAGTCAAGTGAGA (dsDNA),"ulaR full length assumed (Escherichia coli, UniProt P0A9W0)",BLI,"double-stranded DNA, one strand shown",,,12000 nM
CGCAATTAGATAATTAGCCAATTAGCGAATTAGCTAATTAGGCAATTAGGGAATTCTCCGGCGGTATGAC (dsDNA),CIN5 full length assumed,MITOMI,"double-stranded DNA, one strand shown",not purified,,970 ± 80 nM
AGCGTCACAGACATGAAGTTGGTCAGACCAGATGACCTCGGCAAGTGGCTTAAGACAGGAA (dsDNA),pdhR full length assumed,BLI,"double-stranded DNA, one strand shown",,,19.3 nM
ACAGGGGTGTGGGGACAGGGGTGTGGGG (G-quadruplex DNA (Homo sapiens); intramolecular G4),IGF2 fragment (Homo sapiens),SPR,folded DNA,,IGF-2 100-750 nM,30 nM
CAATACACTGTTATCAGACTCACGTGTCGAGCTACTCGTTCGGTTATCCGGCGGTATGAC (dsDNA),PHO4,MITOMI,"double-stranded DNA, one strand shown",not purified,,336 ± 8 nM
CATTCGCAACCTATAAGTAAATCCAATGGAACTCATCATAAATGAGACTTTTACCTTATGA (dsDNA),nac full length assumed,BLI,"double-stranded DNA, one strand shown",,,3.31 nM
CGCGGACACGTGTACACGTTCACACGTTGACACGTTTACACTACCACACTACGACCTCCGGCGGTATGAC (dsDNA),PHO4 full length assumed,MITOMI,"double-stranded DNA, one strand shown",not purified,,130 ± 10 nM
GCAUUUCAU (ssRNA),U2AF2,sequencing of bound RNA,RNA,motif only,,16100 nM
"CCATCGCTACC (dsDNA; blunt, cis-N2-BPDE-dG at position 6)",HMGB3 full length assumed,fluorescence anisotropy,"double-stranded DNA, one strand shown",,,6 ± 0.9 nM
CGCATAATTACCCAATTACCGAATTACCTAATTACGCAATTACGGAATTACGTAACTCCGGCGGTATGAC (dsDNA),CIN5 full length assumed,MITOMI,"double-stranded DNA, one strand shown",not purified,,120 ± 10 nM
CAATACACTGTTATCAGACGCACGTGTCGAGCTACTCGTTCGGTTATCCGGCGGTATGAC (dsDNA),PHO4,MITOMI,"double-stranded DNA, one strand shown",not purified,,66 ± 2 nM
TCCTGAAGAGGCGCCCTAGCTTGGTCCTATCGTCGTCAAGTCAATCGGTCC (dsDNA; 5'-amino-C6 primer),"SUA7 full length assumed (Saccharomyces cerevisiae, UniProt P29055)",array,"double-stranded DNA, one strand shown",TFIIB alone,,5.23 ± 0.94 nM
CGCCACGTGGTGACGTGGTTACGTGTAGACGTGTATACGTGTCCACGTGTCGACGCTCCGGCGGTATGAC (dsDNA),PHO4 full length assumed,MITOMI,"double-stranded DNA, one strand shown",not purified,,64 ± 6 nM
CAATACACTGTTATCAGACACACGTGTCCAGCTACTCGTTCGGTTATCCGGCGGTATGAC (dsDNA),PHO4,MITOMI,"double-stranded DNA, one strand shown",not purified,,117 ± 3 nM
AAACCUCUUUUCUUUAUAAA (ssRNA),U2AF2,ITC,RNA,,,914 ± 461 nM
GGTGAGGGTACTTATGCGGTTGTTTACTTGGGTTGTCAAGTCAATCGGTCC (dsDNA; 5'-amino-C6 primer),SPT15 full length assumed,array,"double-stranded DNA, one strand shown",TBP alone,,1.94 ± 0.11 nM
AUACUCUGGUUUCUCUUCAGAUCGCAUAAAUCUUUCGCCUU (ssRNA),"ECD 1-644 (Homo sapiens, UniProt O95905)",FP,RNA,,,3400 ± 800 nM
TTCAATGCACTATATTAGTGCAACAAACCTGGCGTGCACCATGATGATCATTCCATCAGGT (dsDNA),"glnG full length assumed (Escherichia coli, UniProt P0AFB8)",BLI,"double-stranded DNA, one strand shown",,,2.79 nM
TCCTGAAGGGGCGCCCTAGCTTGGTCCTATCGTCGTCAAGTCAATCGGTCC (dsDNA; 5'-amino-C6 primer),SPT15 full length assumed,array,"double-stranded DNA, one strand shown",TBP alone,,1.53 ± 0.14 nM
CTTGACCAATGC (dsDNA),"BCL11A 737-795 (Homo sapiens, UniProt Q9H165)",ITC,"double-stranded DNA, one strand shown",,,225 ± 19 nM
GCAGUAGGGUGAGGGUGUUGGCAGGGAGCGCCCUCCCCCAUAGUGU (RNA; multiple G-quadruplex hairpins),"MECP2 1-486 (Homo sapiens, UniProt P51608)",fluorescence polarization,folded RNA,Hill coefficient 0.91,,1.51 ± 0.15 nM
GTAAAGTAGGAACGGTATTAATAGAAATGATACTAAAGTACGAAATAATAAACTGGAATTT (dsDNA),pdhR full length assumed,BLI,"double-stranded DNA, one strand shown",,,3720 nM
CAATACACTGTTATCTGACACACGTGTCGAGCTACTCGTTCGGTTATCCGGCGGTATGAC (dsDNA),CBF1,MITOMI,"double-stranded DNA, one strand shown",not purified,,212 ± 13 nM
CCTGCGGTATTGACACTTGAGGGGCGCGACTACTGACAGATGAGGGGCGCGATCCTTGACACTTGAGGGGCAGAGTGATGACAGATGAGGGGCGCACCTATTGACATTTGAGGGGCTGTCCACAGGCAG (dsDNA),"trfA 98-382 G254D/S267L/R327E (Escherichia coli, UniProt P07676)",SPR,"double-stranded DNA, one strand shown",,,2.03 nM

# Repeated from above:
Strand,target,method,molecule type,notes,with,Kd
CGGCAGGACGUACAUCCCUCCCGGCUCCCCUCCCGCUGGCCUGCCG (RNA; extended stem-loop),"PARP1 216-1014 del1-215 (Homo sapiens, UniProt P09874)",fluorescence polarization,folded RNA,Hill coefficient 0.46,,3.8 ± 0.8 nM
TCCTGAAGGGGAGCCCTAGCTTGGTCCTATCGTCGTCAAGTCAATCGGTCC (dsDNA; 5'-amino-C6 primer),SPT15 full length assumed,array,"double-stranded DNA, one strand shown",TBP alone,,9.08 ± 3.35 nM
CAATACACTGTTATCAGACACACGTGTCGATCTACTCGTTCGGTTATCCGGCGGTATGAC (dsDNA),CBF1,MITOMI,"double-stranded DNA, one strand shown",not purified,,195 ± 9 nM
